Assay results collected from several papers.
A part holds a random share of what one study measured.
Sequence of UniProt Q6PHR2 (whole entry, looked up): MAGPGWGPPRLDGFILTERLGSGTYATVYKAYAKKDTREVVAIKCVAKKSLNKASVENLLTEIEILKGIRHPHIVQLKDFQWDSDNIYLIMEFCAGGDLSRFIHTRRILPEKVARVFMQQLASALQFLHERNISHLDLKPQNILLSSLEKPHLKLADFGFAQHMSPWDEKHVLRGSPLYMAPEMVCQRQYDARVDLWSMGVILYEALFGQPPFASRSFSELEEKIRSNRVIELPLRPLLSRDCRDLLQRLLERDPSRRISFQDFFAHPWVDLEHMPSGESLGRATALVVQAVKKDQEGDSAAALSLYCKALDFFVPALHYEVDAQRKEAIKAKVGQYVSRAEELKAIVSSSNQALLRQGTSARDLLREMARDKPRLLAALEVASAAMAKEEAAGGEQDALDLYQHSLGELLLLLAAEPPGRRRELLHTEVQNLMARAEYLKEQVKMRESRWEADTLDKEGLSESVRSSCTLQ
Sequence of UniProt P23443 (whole entry, looked up): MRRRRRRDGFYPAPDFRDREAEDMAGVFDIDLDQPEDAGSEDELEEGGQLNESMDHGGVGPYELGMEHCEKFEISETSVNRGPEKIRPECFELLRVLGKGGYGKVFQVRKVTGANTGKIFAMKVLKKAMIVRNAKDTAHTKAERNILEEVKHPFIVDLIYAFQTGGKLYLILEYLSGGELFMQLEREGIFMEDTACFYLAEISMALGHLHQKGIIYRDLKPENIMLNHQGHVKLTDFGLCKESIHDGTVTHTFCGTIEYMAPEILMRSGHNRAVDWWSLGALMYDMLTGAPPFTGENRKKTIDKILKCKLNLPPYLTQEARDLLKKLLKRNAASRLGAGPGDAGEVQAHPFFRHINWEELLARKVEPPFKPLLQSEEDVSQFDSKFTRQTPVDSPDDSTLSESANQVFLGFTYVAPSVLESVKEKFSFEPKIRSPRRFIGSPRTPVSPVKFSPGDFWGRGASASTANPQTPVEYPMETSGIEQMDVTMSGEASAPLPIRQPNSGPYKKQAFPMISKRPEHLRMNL
Sequence of UniProt Q00536 (whole entry, looked up): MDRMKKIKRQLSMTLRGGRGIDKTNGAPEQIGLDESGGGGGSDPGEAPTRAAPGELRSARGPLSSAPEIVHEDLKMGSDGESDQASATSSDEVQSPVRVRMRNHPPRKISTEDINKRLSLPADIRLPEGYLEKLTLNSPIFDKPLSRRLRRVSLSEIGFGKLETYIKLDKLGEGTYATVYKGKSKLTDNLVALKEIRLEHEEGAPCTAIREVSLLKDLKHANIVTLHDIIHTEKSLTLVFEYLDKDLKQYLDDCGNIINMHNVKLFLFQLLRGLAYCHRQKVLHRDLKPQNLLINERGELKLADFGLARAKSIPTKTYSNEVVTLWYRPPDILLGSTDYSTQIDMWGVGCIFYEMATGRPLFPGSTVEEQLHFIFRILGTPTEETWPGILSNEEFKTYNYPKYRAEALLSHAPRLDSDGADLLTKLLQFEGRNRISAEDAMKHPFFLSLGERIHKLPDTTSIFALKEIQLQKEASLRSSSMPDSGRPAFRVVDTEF
Sequence of UniProt Q13163 (whole entry, looked up): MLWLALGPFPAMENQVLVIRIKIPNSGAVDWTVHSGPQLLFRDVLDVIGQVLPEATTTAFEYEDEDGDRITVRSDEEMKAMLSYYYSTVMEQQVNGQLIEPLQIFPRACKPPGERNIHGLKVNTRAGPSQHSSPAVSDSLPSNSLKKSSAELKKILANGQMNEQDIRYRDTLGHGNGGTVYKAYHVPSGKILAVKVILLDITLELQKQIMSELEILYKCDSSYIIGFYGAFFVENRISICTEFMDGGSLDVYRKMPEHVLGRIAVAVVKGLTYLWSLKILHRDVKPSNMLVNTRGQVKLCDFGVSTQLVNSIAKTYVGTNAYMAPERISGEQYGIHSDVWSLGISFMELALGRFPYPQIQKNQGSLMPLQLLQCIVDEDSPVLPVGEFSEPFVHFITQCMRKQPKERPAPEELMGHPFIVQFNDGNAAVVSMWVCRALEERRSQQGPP
Sequence of UniProt Q8N4C8 (whole entry, looked up): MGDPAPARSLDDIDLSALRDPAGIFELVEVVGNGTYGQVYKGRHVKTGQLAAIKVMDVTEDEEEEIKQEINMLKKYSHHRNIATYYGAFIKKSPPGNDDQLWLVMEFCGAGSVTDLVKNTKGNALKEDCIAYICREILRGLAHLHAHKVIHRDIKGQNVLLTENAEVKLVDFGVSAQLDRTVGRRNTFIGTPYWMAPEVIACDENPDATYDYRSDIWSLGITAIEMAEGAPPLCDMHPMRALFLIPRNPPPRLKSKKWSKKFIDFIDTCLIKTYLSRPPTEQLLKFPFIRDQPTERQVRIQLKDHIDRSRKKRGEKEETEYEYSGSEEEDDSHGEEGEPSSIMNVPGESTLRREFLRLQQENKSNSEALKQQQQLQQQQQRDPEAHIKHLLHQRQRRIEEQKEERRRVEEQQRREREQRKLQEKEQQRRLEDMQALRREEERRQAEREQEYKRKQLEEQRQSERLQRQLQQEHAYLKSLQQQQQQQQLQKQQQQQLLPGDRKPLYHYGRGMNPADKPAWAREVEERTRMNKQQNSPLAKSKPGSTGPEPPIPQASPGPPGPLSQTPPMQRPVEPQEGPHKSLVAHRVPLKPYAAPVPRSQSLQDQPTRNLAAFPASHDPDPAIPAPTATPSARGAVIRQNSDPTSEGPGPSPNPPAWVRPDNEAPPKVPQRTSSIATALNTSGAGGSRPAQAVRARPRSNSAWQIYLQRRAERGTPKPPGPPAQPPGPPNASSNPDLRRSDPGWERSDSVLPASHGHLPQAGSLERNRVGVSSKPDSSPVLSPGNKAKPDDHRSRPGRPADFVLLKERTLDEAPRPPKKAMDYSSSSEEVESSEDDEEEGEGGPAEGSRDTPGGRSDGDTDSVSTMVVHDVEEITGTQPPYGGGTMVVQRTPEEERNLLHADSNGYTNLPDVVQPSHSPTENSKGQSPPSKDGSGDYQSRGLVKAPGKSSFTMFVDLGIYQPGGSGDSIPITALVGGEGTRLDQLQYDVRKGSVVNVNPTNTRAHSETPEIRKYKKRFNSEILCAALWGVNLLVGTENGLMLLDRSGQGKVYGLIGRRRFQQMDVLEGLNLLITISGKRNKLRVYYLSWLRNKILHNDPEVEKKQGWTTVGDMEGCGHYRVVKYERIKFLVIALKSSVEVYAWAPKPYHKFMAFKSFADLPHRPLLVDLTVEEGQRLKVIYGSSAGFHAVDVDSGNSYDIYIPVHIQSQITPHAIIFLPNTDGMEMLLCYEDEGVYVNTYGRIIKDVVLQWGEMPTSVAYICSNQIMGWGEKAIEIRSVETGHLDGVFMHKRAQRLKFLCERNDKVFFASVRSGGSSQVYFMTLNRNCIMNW
Sequence of UniProt P32298 (whole entry, looked up): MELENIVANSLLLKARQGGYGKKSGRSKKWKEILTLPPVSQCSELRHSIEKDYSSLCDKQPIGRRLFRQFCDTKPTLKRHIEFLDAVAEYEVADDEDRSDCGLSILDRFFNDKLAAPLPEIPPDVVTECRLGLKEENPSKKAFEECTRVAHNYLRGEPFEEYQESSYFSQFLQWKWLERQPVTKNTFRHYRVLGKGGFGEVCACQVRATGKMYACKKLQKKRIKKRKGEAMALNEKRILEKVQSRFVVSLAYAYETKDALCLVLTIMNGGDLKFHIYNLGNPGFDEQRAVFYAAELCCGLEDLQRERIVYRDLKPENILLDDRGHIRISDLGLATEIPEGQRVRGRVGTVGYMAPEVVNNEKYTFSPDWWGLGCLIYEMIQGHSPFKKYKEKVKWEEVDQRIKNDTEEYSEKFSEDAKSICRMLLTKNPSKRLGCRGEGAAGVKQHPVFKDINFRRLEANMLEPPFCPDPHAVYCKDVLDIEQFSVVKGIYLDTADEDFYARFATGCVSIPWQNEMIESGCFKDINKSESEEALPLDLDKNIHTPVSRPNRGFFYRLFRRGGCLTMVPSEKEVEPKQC
Sequence of UniProt P24723 (whole entry, looked up): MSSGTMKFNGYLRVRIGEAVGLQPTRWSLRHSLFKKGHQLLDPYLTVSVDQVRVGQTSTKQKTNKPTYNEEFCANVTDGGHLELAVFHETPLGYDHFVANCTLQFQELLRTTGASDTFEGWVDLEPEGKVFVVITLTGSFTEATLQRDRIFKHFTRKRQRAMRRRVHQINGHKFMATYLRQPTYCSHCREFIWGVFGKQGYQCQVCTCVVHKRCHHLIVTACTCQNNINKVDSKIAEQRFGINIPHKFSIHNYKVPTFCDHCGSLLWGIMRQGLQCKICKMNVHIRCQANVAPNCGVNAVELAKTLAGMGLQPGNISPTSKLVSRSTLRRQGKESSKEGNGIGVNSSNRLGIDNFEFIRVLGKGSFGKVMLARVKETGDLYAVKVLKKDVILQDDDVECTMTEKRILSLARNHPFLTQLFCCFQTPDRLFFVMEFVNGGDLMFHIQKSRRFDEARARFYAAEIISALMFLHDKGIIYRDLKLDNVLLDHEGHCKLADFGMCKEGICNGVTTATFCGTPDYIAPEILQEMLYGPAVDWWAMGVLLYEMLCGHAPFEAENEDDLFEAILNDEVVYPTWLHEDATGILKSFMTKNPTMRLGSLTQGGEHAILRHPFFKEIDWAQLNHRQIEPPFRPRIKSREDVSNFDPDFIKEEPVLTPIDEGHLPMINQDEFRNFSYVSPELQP

Set 1 — observed: cell-free assay; method: competition with immobilised ligand; concentration: 1 µM
Compound: CO[C@H]1CC[C@H](CNc2ccc(S(=O)(=O)NC(=O)c3ccc(N4CCN(CC5=C(c6ccc(Cl)cc6)CC(C)(C)CC5)CC4)cc3Oc3cnc4[nH]ccc4c3)cc2[N+](=O)[O-])CC1
target | remaining binding
Cyclin-dependent kinase 16 (CDK16, Homo sapiens, UniProt Q00536) | 61%
Phosphatidylinositol 4,5-bisphosphate 3-kinase catalytic subunit alpha isoform (PIK3CA, Homo sapiens, UniProt P42336) | 77%
Serine/threonine-protein kinase WNK2 (WNK2, Homo sapiens, UniProt Q9Y3S1) | 76%
Misshapen-like kinase 1 (MINK1, Homo sapiens, UniProt Q8N4C8) | 88%
Tyrosine-protein kinase ABL1, phosphorylated (ABL1, Homo sapiens, UniProt P00519, T315I) | 80%
Dual specificity mitogen-activated protein kinase kinase 5 (MAP2K5, Homo sapiens, UniProt Q13163) | 66%
Protein kinase C eta type (PRKCH, Homo sapiens, UniProt P24723) | 60%
Ribosomal protein S6 kinase beta-1 (RPS6KB1, Homo sapiens, UniProt P23443) | 86%
G protein-coupled receptor kinase 4 (GRK4, Homo sapiens, UniProt P32298) | 100%
Serine/threonine-protein kinase ULK3 (ULK3, Homo sapiens, UniProt Q6PHR2) | 80%

Set 2 — observed: enzyme activity; action: inhibitor; concentration: 0.5 µM; relative to: control
Target: Calcium/calmodulin-dependent protein kinase type II subunit alpha (CAMK2A, Homo sapiens, UniProt Q9UQM7)
Sequence of UniProt Q9UQM7 (whole entry, looked up): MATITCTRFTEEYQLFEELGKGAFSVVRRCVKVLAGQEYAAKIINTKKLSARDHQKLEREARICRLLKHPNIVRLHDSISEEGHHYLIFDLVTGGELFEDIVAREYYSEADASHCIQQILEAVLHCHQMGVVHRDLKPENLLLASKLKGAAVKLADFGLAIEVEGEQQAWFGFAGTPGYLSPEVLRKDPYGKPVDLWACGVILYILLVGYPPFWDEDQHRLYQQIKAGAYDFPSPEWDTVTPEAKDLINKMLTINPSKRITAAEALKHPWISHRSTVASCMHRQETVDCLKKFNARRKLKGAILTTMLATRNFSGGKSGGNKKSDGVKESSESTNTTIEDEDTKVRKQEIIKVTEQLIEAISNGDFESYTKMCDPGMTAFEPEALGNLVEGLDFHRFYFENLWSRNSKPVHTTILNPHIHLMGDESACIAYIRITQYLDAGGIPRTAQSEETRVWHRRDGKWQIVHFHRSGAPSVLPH
SMILES | remaining activity [%]
CNc1cc2c(Nc3cccc(Br)c3)ncnc2cn1 | 105
CC(C)n1cnc2c(Nc3cccc(Cl)c3)nc(NCCO)nc21 | 99.1
CCCCc1c(-c2ccc(O)cc2)[nH]c2nccnc12 | 97.8
N#CC(c1ccnc(NCCc2cccnc2)n1)c1nc2ccccc2s1 (stereo not shown) | 105
C[C@@H](N)[C@H]1CC[C@H](C(=O)Nc2ccncc2)CC1 | 100
CC(C)(C)c1nc2c3cc[nH]c(=O)c3c3cc(F)ccc3c2[nH]1 | 35.1
FC(F)(F)c1ccc(/C=C/c2nc(COc3ccc(CCCCn4ccnn4)cc3)co2)cc1 | 101
COc1cc2c(Nc3ccc(Br)cc3F)ncnc2cc1OCC1CCN(C)CC1 | 99.8
CCN(CC)CCCCN1c2ccccc2Oc2ccc(Cl)cc21 | 104
CC(C)N(CCC(=O)c1ccc2ccccc2c1)Cc1ccccc1 | 106
Clc1ccc(Nc2nnc(Cc3ccncc3)c3ccccc23)cc1 | 93.2
O=Nc1c(-c2c(O)[nH]c3ccccc23)[nH]c2ccccc12 | 50.2
NC(=O)c1ccc(-c2nc(-c3ccc4c(c3)OCCO4)c(-c3ccccn3)[nH]2)cc1 | 102
O=C(c1ccccc1)c1ccc(N2CCOCC2)cc1O | 105
NC(=O)c1cccc(-c2cc(Nc3ccc(OC(F)(F)F)cc3)ncn2)c1 | 102
O=C1NC(=O)/C(=C/c2ccc3c(c2)OC(F)(F)O3)S1 | 96.8
Nc1nc(Nc2ccc(S(N)(=O)=O)cc2)nn1C(=S)Nc1c(F)cccc1F | 14.3
O=c1c(-c2ccc(F)cc2)c(-c2ccncc2)[nH]n1-c1ccc(Cl)cc1 | 86.9
N#C/C(=C(/N)SC1C=CC=CC1)c1cccc(C(O)c2ccncc2)c1 (stereo not shown) | 118
c1cc(-c2cnn3cc(-c4ccc(OCCN5CCCCC5)cc4)cnc23)ccn1 | 69.1
COc1cc2c(N3CCN(C(=O)Nc4ccc(OC(C)C)cc4)CC3)ncnc2cc1OCCCN1CCCCC1 | 101
O=C1c2ccccc2-c2nc3nnnn3nc21 | 84.7
O=C(O)/C=C/c1cc(Br)c(Br)c(Br)c1Br | 64.4

Set 3 — cell line: A-375; concentration: 100 µM; time: 18 h
SMILES | viability
CCC(CC)[C@H](NC(C)=O)[C@@H]1[C@H](O)[C@@H](C(=O)O)C[C@H]1NC(=N)N | 98.9%
COc1cc(C[C@H]2C(=O)OC[C@@H]2Cc2ccc(OC)c(OC)c2)ccc1O | 104%
Cc1cccc(Nc2ccccc2C(=O)O)c1C | 92.1%
O=C(O)Cc1ccc(-c2ccccc2)cc1 | 98.5%
O=C(O)c1cc(=O)c2ccccc2o1 | 93.6%
Cc1ccc(C(=O)c2cc(O)c(O)c([N+](=O)[O-])c2)cc1 | 105%
O=C(O)c1cc(O)c(O)c(O)c1 | 15.4%
CN1CC(=O)N2[C@H](c3ccc4c(c3)OCO4)c3[nH]c4ccccc4c3C[C@@H]2C1=O | 101%
OC[C@@H](O)[C@@H](O)[C@H](O)[C@H](O)CO | 85.7%
CC(CN(C)C)CN1c2ccccc2CCc2ccccc21 (stereo not shown) | 103%
CC1(C)O[C@@H]2C[C@H]3[C@@H]4CCC5=CC(=O)CC[C@]5(C)[C@@]4(F)[C@@H](O)C[C@]3(C)[C@]2(C(=O)CCl)O1 | 85.2%
Nc1ncnc2c1ncn2[C@@H]1O[C@H](COP(=O)(O)O)[C@@H](O)[C@H]1O | 98.1%
CCCc1nc(C(C)(C)O)c(C(=O)OCc2oc(=O)oc2C)n1Cc1ccc(-c2ccccc2-c2nnn[nH]2)cc1 | 99%

Set 4 — observed: enzyme activity; action: inhibitor; concentration: 10 µM
Target: Calcium/calmodulin-dependent protein kinase type II subunit alpha (CAMK2A, Homo sapiens, UniProt Q9UQM7)
Compound | inhibition [%]
C/C=C/C=C/C=C\CC/C=C/C(=O)NCC(C)(C)O | -3
OC[C@H]1O[C@@H](c2ccc(F)c(Cc3cc4ccccc4s3)c2)[C@H](O)[C@@H](O)[C@@H]1O | -5
CN1CCC(=C2c3ccccc3CCc3sccc32)CC1 | -3
COc1ccc(-c2coc3cc(OC)ccc3c2=O)cc1 | -20
Cc1c(C)c2c(c(C)c1O)CCC(C)(COc1ccc(CC3SC(=O)NC3=O)cc1)O2 (stereo not shown) | 7
CCc1cc2c(cc1CC)CC(NC[C@H](O)c1ccc(O)c3[nH]c(=O)ccc13)C2 | -4
COc1cc2ccc(=O)oc2cc1O | 36
COc1cc2c(cc1OC)[C@H]1Cc3ccc(OC)c(OC)c3CN1CC2 | -8
NCCC[C@](N)(C(=O)O)C(F)F | -1

Excerpt of the above (set 2):
SMILES | remaining activity [%]
NC(=O)c1cccc(-c2cc(Nc3ccc(OC(F)(F)F)cc3)ncn2)c1 | 102
CCCCc1c(-c2ccc(O)cc2)[nH]c2nccnc12 | 97.8
O=C1c2ccccc2-c2nc3nnnn3nc21 | 84.7
NC(=O)c1ccc(-c2nc(-c3ccc4c(c3)OCCO4)c(-c3ccccn3)[nH]2)cc1 | 102
